Assay results of several laboratories.
Compare with care: the assays were run in different laboratories.
Medium: plasma

`CN1CCC[C@]1(C)/C=C/S(=O)(=O)NC(=O)Nc1c2c(cc3c1CCC3O)CCC2` (stereo partly shown) has an AUC(0-inf) of 1970 µg·h/mL (human; oral, 100 mg twice daily of parent drug, day 14, metabolite of dosed drug).
`N#Cc1cc(NC(=O)C2c3ccccc3C(=O)N(CC(F)(F)F)C2c2ccc[n+]([O-])c2)ccc1F` (stereo not shown) has an AUC(0-inf) of 41.7 µg·h/mL (human; 600 mg, fasted, median).
`Cc1[nH]c(=O)c(CNC(=O)c2cc(Cl)c3c(c2C)O[C@@](C)([C@H]2CC[C@H](N(C)C)CC2)O3)c(C)c1O` gave an AUC(0-inf) of 12.6 µg·h/mL (human; oral, 200 mg, single dose, metabolite of valemetostat, together with: [14C]-valemetostat).
The AUC(0-inf) of `CCCCCCCCCCCCCCCC(=O)N[C@@H](CCCCN)C(=O)N[C@@H](CCCCN)C(=O)N[C@@H](CO)C(=O)N[C@@H](CCCNC(=N)N)C(=O)N[C@@H](C)C(=O)N[C@@H](CC(C)C)C(=O)N[C@@H](Cc1ccccc1)C(N)=O` is reported as 3.53 µg·h/mL (human patients; intravenous, 0.3 mg/kg over 2 h).
`CC[C@H](C)[C@@H]1NC(=O)[C@H](Cc2ccc(O)cc2)NC(=O)CCCSC[C@@H](C(=O)N(CC(=O)N[C@@H](CC(C)C)C(=O)NCC(N)=O)Cc2ccc(F)cc2)NC(=O)[C@H](CC(N)=O)NC(=O)[C@H](CCC(N)=O)NC1=O` has an AUC(0-inf) of 0.000112 µg·h/mL (human; intranasal, 400 µg, single dose).
`CN(C(=O)C(C)(C)c1cc(C(F)(F)F)cc(C(F)(F)F)c1)c1cnc(N2C[C@H]3COC(O)CN3C[C@H]2CO)cc1-c1ccc(F)cc1CO` (stereo partly shown) has an AUC(0-inf) of 1.2 µg·h/mL (human; oral, 120 mg, geometric mean).
`CN1CCC[C@]1(C)/C=C/S(=O)(=O)NC(=O)Nc1c2c(cc3c1CCC3)CC=C2` has an AUC(0-inf) of 1260 µg·h/mL (human; oral, 100 mg twice daily of parent drug, day 14, metabolite of dosed drug).
For `CC(C)C[C@H](NC(=O)[C@H](CCCN)NC(=O)CNC(=O)[C@@H](NC(=O)[C@H](C)NC(=O)[C@@H]1CSCSC[C@H](NC(=O)CC[C@H](N)C(=O)O)C(=O)N[C@@H](CC(N)=O)C(=O)N[C@@H]([C@@H](C)O)C(=O)N[C@@H](C)C(=O)N[C@@H]([C@@H](C)O)C(=O)N1)[C@@H](C)O)C(=O)N[C@@H](C)C(=O)N[C@@H](CCC(=O)O)C(=O)N[C@@](C)(Cc1ccccc1)C(=O)N[C@@H](CC(C)C)C(=O)N[C@H](C(=O)N[C@@H](CCCNC(=N)N)C(=O)N[C@@H](CO)C(=O)N[C@@H](CO)C(=O)N[C@@H](CC(N)=O)C(=O)N(C)[C@@H](CC(N)=O)C(=O)N[C@@H](Cc1ccccc1)C(=O)NCC(=O)N1CCC[C@H]1C(=O)N[C@@H](CCCCNC(=O)CC[C@H](NC(=O)CC[C@H](NC(=O)CCCCCCCCCCCCCCCCCCC(=O)O)C(=O)O)C(=O)O)C(=O)N[C@@H](CC(C)C)C(=O)N1CCC[C@H]1C(=O)N1CCC[C@H]1C(=O)N[C@H](C(=O)N[C@@H](CCC(=O)O)C(=O)N[C@H](C(=O)NCC(=O)N[C@@H](CO)C(=O)N[C@@H](CC(N)=O)C(=O)N[C@H](C(=O)N[C@@H](Cc1ccc(O)cc1)C(N)=O)[C@@H](C)O)C(C)C)[C@@H](C)O)C(C)C`, the AUC(0-inf) was 224 µg·h/mL (healthy human; subcutaneous, 4 mg).
`CN1CCC[C@]1(C)/C=C/S(=O)(=O)NC(=O)Nc1c2c(cc3c1CC(O)C3)CCC2` (stereo partly shown) gave an AUC(0-inf) of 157 µg·h/mL (human; oral, 50 mg twice daily of parent drug, day 14, metabolite of dosed drug).
`CC1(C)CC[C@]2(NC(=O)C(C)(F)F)CC[C@]3(C)[C@H](C(=O)C=C4[C@@]5(C)C=C(C#N)C(=O)C(C)(C)[C@@H]5CC[C@]43C)[C@@H]2C1` gave an AUC(0-inf) of 1.32 µg·h/mL (human; oral, dose not given, geometric least-squares mean, together with: gemfibrozil).

Repeated from above:
`CN(C(=O)C(C)(C)c1cc(C(F)(F)F)cc(C(F)(F)F)c1)c1cnc(N2C[C@H]3COC(O)CN3C[C@H]2CO)cc1-c1ccc(F)cc1CO` (stereo partly shown) has an AUC(0-inf) of 1.2 µg·h/mL (human; oral, 120 mg, geometric mean).
